Measured values pooled from the literature.
Each line is one published result; not all experiments were run side by side. “And” joins repeats or separate records; there may be more than shown. Numbers after ± are the reported error.
UniProt O75385, sequence (whole entry, looked up): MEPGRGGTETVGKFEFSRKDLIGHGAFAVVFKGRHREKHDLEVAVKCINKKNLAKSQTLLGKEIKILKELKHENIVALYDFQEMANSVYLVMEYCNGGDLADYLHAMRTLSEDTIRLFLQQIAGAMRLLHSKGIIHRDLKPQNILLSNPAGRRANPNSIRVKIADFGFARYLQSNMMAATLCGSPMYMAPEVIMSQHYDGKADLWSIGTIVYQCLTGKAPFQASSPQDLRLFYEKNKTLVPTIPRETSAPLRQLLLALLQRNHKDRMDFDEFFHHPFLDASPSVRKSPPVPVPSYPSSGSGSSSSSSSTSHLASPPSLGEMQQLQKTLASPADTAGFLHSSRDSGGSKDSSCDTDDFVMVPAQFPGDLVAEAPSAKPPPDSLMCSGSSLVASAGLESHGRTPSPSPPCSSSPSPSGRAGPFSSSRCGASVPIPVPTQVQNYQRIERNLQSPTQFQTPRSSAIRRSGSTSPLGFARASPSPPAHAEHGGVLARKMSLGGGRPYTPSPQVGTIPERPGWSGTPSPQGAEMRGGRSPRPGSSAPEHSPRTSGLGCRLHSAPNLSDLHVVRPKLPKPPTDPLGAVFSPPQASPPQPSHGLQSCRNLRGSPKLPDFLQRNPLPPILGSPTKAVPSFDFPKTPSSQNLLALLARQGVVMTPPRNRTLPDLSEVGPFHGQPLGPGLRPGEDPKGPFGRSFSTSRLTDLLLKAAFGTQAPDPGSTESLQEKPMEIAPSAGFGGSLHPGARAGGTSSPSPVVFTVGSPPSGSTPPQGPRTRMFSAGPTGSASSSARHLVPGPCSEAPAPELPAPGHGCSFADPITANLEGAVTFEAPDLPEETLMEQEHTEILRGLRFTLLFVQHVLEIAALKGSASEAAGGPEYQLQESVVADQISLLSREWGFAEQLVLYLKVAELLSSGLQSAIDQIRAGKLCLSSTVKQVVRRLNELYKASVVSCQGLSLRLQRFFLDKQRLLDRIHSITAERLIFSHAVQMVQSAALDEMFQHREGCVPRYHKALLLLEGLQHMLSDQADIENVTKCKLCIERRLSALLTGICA

SMILES	target or system	test	test system	conditions	scale	quantity	result
[2H]C([2H])([18F])[C@]([2H])(N)C(=O)O		PET	athymic nude mouse, U-87 MG tumour	15 min		maximum tumour uptake	2 to 3 %ID/cc
CC(C)C[C@@H](NC(=O)[C@@H](CCCNC(=N)N)NC(=O)[C@@H](Cc1c[nH]cn1)NC(=O)[C@@H](Cc1c[nH]c2ccccc12)NC(=O)[C@@H](Cc1c[nH]cn1)NC(=O)[C@@H](Cc1ccccc1)NC(=O)[C@H](NC(=O)[C@@H](Cc1ccc(O)cc1)NC(=O)CNC(=O)CNC(=O)CCOCCOCCOCCNC(=O)CN1CCN(CC(=O)O)CCN(CC(=O)O)CC1)[C@H](C)O)C(=O)N[C@H](CC(N)=O)C(=O)N1CCC[C@@H]1C(=O)O [gallium-68 labelled]			C57BL/6 mice, male	intravenous, 1.85 MBq, 120 min	reference: tumour over liver	tissue ratio	6.13 ± 1.62
CSCC[C@H](N)C(=O)N[C@@H](C)C(=O)N[C@@H](CCCNC(=N)N)C(=O)N[C@@H](CCCNC(=N)N)C(=O)N[C@@H](CC(=O)O)C(=O)N[C@@H](CCCCN)C(=O)N[C@H](C(=O)N[C@@H](CC(=O)O)C(=O)N[C@@H](Cc1ccccc1)C(=O)N[C@@H](C)C(=O)N[C@@H](CCCNC(=N)N)C(=O)N[C@@H](CCCNC(=N)N)C(=O)N[C@@H](CCCNC(=N)N)C(=O)N[C@@H](CCCNC(=N)N)C(=O)NCCCCCC(=O)NCCCCC(NC(=O)CCCCCNC(=O)[C@H](CCCNC(=N)N)NC(=O)[C@H](CCCNC(=N)N)NC(=O)[C@H](CCCNC(=N)N)NC(=O)[C@H](CCCNC(=N)N)NC(=O)[C@H](C)NC(=O)[C@H](Cc1ccccc1)NC(=O)[C@H](CC(=O)O)NC(=O)[C@@H](NC(=O)[C@H](CCCCN)NC(=O)[C@H](CC(=O)O)NC(=O)[C@H](CCCNC(=N)N)NC(=O)[C@H](CCCNC(=N)N)NC(=O)[C@H](C)NC(=O)[C@@H](N)CCSC)[C@@H](C)O)C(=O)NCCCCC(NC(=O)C(CCCCNC(=O)CCCCCNC(=O)[C@H](CCCNC(=N)N)NC(=O)[C@H](CCCNC(=N)N)NC(=O)[C@H](CCCNC(=N)N)NC(=O)[C@H](CCCNC(=N)N)NC(=O)[C@H](C)NC(=O)[C@H](Cc1ccccc1)NC(=O)[C@H](CC(=O)O)NC(=O)[C@@H](NC(=O)[C@H](CCCCN)NC(=O)[C@H](CC(=O)O)NC(=O)[C@H](CCCNC(=N)N)NC(=O)[C@H](CCCNC(=N)N)NC(=O)[C@H](C)NC(=O)[C@@H](N)CCSC)[C@@H](C)O)NC(=O)CCCCCNC(=O)[C@H](CCCNC(=N)N)NC(=O)[C@H](CCCNC(=N)N)NC(=O)[C@H](CCCNC(=N)N)NC(=O)[C@H](CCCNC(=N)N)NC(=O)[C@H](C)NC(=O)[C@H](Cc1ccccc1)NC(=O)[C@H](CC(=O)O)NC(=O)[C@@H](NC(=O)[C@H](CCCCN)NC(=O)[C@H](CC(=O)O)NC(=O)[C@H](CCCNC(=N)N)NC(=O)[C@H](CCCNC(=N)N)NC(=O)[C@H](C)NC(=O)[C@@H](N)CCSC)[C@@H](C)O)C(N)=O)[C@@H](C)O (stereo partly drawn)			C57BL/6 mouse female, spine	dose not given, 3 h	reference: total	tissue distribution	7.16%
CC(C)=CCC/C(C)=C/CCn1cc(CC(P(=O)(O)O)P(=O)(O)O)nn1			CD-1 mice, pooled bile	intravenous, 0.3 mg/kg, 24 h		bile concentration	not detected
N=C(N)NCCC[C@H](NC(=O)[C@H](CCCNC(=N)N)NC(=O)[C@H](CCCNC(=N)N)NC(=O)[C@H](CCC(N)=O)NC(=O)[C@H](CCCNC(=N)N)NC(=O)[C@H](CCCNC(=N)N)NC(=O)[C@H](CCCCN)NC(=O)[C@H](CCCCN)NC(=O)[C@H](CCCNC(=N)N)NC(=O)CNC(=O)[C@H](Cc1ccc(O)cc1)NC(=O)[C@H](Cc1ccccc1)NC(=O)[C@H](Cc1ccccc1)NC(=O)[C@H](Cc1ccccc1)NC(=O)Cc1ccc2ccccc2c1)C(=O)O			C57BL/6 mice	intraperitoneal, 5 mg/kg, 48 h	direction not given	health score	5
O=C1NC2(CC2)COc2ncc(F)cc2[C@H]2COCCN2c2ccn3ncc1c3n2			Sprague-Dawley rat, female, serum	oral, 10 mg/kg/day, end of treatment, 4-week subacute toxicity		serum total protein	59.5 ± 3.4 g/L
CC(C)Oc1cccc(/N=N/c2ccc3[nH]cc(CCN(C)C)c3c2)c1		light irradiation	solution	added: light 385 nm		cis isomer at photostationary state	83%
COc1ccccc1-c1n[nH]c2nc(NC3CCN(C(=O)Cc4ccc(F)cc4F)CC3)ncc12		bead binding, competition bead pull-down, measured: LINJ.21.2130	Leishmania donovani axenic amastigote extract	10 µM	reference: vehicle	relative abundance	1.34
CN(C)[C@H]1C[C@@]23CC[C@@]4(O2)C(=CC[C@]2(C)[C@@H](c5ccc6ccncc6c5)CC[C@H]24)C=C3[C@@H](O)[C@@H]1O	Serine/threonine-protein kinase ULK1 (ULK1, Homo sapiens, UniProt O75385)	ATP probe labelling, inhibitor, KiNativ profiling		1 µM		inhibition	5.7%
CC(C)C[C@H](NC(=O)[C@H](CCCCN)NC(=O)[C@H](CCC(N)=O)NC(=O)[C@@H](N)Cc1c[nH]cn1)C(=O)N[C@H](C(=O)N[C@@H](CC(N)=O)C(=O)N[C@@H](Cc1ccccc1)C(=O)N[C@@H](C)C(=O)N[C@@H](CCC(=O)O)C(=O)N[C@@H](CC(=O)O)C(=O)N[C@H](C(=O)O)C(C)C)C(C)C		OD600	20 mM Tris-HCl	pH 7.4		turbidity onset concentration	1.3 mg/mL
CC[C@H](C)[C@H](NC(=O)[C@H](CCCCN)NC(=O)CNC(=O)[C@H](CC(C)C)NC(=O)[C@H](Cc1ccccc1)NC(=O)[C@H](CCCCN)NC(=O)[C@H](CO)NC(=O)[C@H](Cc1ccccc1)NC(=O)[C@H](Cc1c[nH]c2ccccc12)NC(=O)[C@H](CCC(N)=O)NC(=O)[C@@H](NC(=O)[C@H](Cc1ccccc1)NC(=O)CCCCCNC(=O)CN1CCN(CC(=O)O)CCN(CC(=O)O)CCN(CC(=O)O)CC1)C(C)C)C(=O)N[C@@H](CCC(=O)O)C(=O)N1CCC[C@H]1C(=O)N[C@@H](CC(=O)O)C(=O)N[C@H](C(=O)N[C@@H](CO)C(=O)N[C@@H](CCC(N)=O)C(=O)N[C@H](C(=O)N[C@@H](CCC(N)=O)C(=O)N[C@@H](CC(=O)O)C(=O)N1CCC[C@H]1C(=O)N[C@@H](CC(N)=O)C(=O)N[C@@H](CC(=O)O)C(=O)N[C@@H](CCC(N)=O)C(=O)N[C@@H](Cc1ccc(O)cc1)C(=O)N[C@@H](CCC(=O)O)C(=O)N1CCC[C@H]1C(=O)N[C@@H](Cc1ccccc1)C(=O)O)C(C)C)C(C)C [copper-64 labelled]		dynamic PET	mouse, CT26 tumour, checkpoint inhibitor-treated, tumour	intravenous, 100 µCi/mouse, 1380 s		SUVmean	3.89 SUV
CCCCCCCCCCCCCCCC(=O)N[C@@H](CCC(=O)NCCCC[C@H](NC(=O)[C@H](CC(=O)O)NC(=O)[C@H](CO)NC(=O)[C@@H](NC(=O)[C@H](Cc1ccccc1)NC(=O)[C@@H](NC(=O)CNC(=O)[C@H](CCC(N)=O)NC(=O)[C@H](C)NC(=O)[C@@H](Cc1ccc(O)cc1)NC(C)=O)[C@@H](C)O)[C@@H](C)O)C(=O)N[C@@H](CO)C(=O)N[C@@H](CCCCN)C(=O)N[C@@H](Cc1ccc(O)cc1)C(=O)N[C@@H](CC(C)C)C(=O)N[C@@H](CC(=O)O)C(=O)N[C@@H](CCC(=O)O)C(=O)N[C@@H](CCCNC(=N)N)C(=O)N[C@@H](C)C(=O)N[C@@H](C)C(=O)N[C@@H](CCC(N)=O)C(=O)N[C@@H](CC(=O)O)C(=O)N[C@@H](Cc1ccccc1)C(=O)N[C@H](C(=O)N[C@@H](CCC(N)=O)C(=O)N[C@@H](Cc1c[nH]c2ccccc12)C(=O)N[C@@H](CC(C)C)C(=O)N[C@@H](CC(C)C)C(=O)N[C@@H](CCC(=O)O)C(=O)NCC(=O)NCC(=O)N1CCC[C@H]1C(=O)N[C@@H](CO)C(=O)N[C@@H](CO)C(=O)NCC(=O)N[C@@H](C)C(=O)N1CCC[C@H]1C(=O)N1CCC[C@H]1C(=O)N1CCC[C@H]1C(=O)N[C@@H](CO)C(N)=O)C(C)C)C(=O)O			cynomolgus monkey, plasma	intravenous, 0.0031 mg/kg		AUC(0-last)	428 to 501 ng·h/mL
CCCCCCCCCCCC(=O)C(C)C(=O)N1CCC[C@H]1C(=O)NC(C)(C)C(=O)NC(C)(C)C(=O)NC(C)(C)C(=O)N[C@](C)(CC)C(=O)NCCC(=O)N[C@@H](C)C(=O)N[C@](C)(CC)C(=O)N[C@@H](C)C(=O)N[C@@H](CC(C)C)C(=O)N[C@](C)(CC)C(=O)NCCC(=O)N[C@@H](C)C(=O)N[C@](C)(CC)C(=O)NCCC(=O)N[C@@H](C)C(=O)NC(C)(C)C(=O)NC(C)(C)C(=O)NC(C)(C)C(=O)N[C@@H](C)C(=O)N[C@@H](CC(=O)O)C(=O)O (stereo partly drawn)		LC-MS	buffer with human neutrophil elastase	40 µM, 10 min, pH 7.5, 37 °C	reference: 0 h	remaining intact peptide	75.3% and 89.5% and 80.9%
CC[C@H](C)[C@H](NC(=O)[C@H](Cc1c[nH]cn1)NC(=O)[C@H](CCCCN)NC(=O)[C@H](C)NC(=O)[C@H](C)NC(=O)[C@H](Cc1c[nH]cn1)NC(=O)[C@H](CCCNC(=N)N)NC(=O)CNC(=O)[C@H](Cc1c[nH]cn1)NC(=O)[C@H](CCCCN)NC(=O)[C@H](Cc1ccccc1)NC(=O)[C@@H](NC(=O)[C@H](CO)NC(=O)CNC(=O)[C@H](Cc1c[nH]c2ccccc12)NC(=O)CN)[C@@H](C)CC)C(=O)NCC(=O)N[C@@H](Cc1c[nH]cn1)C(=O)N[C@@H](C)C(=O)N[C@@H](C)C(=O)N[C@H](C(=O)N[C@@H](CC(N)=O)C(=O)N[C@@H](Cc1c[nH]cn1)C(=O)N[C@@H](Cc1ccc(O)cc1)C(=O)N[C@@H](CC(C)C)C(N)=O)C(C)C			zebrafish embryos 4 hpf, E3 medium	24 h		chronic toxic concentration	5 µM
NC1CCN(C(=O)Oc2ccc(C3CCCC4(C3)OOC3(O4)C4CC5CC(C4)CC3C5)cc2)CC1 (racemic)			male Sprague-Dawley rat, plasma	oral, 50 mg/kg		AUC(0-t)	4010 ng·h/mL

Excerpt of the above:
SMILES	target or system	test	test system	conditions	scale	quantity	result
CC[C@H](C)[C@H](NC(=O)[C@H](CCCCN)NC(=O)CNC(=O)[C@H](CC(C)C)NC(=O)[C@H](Cc1ccccc1)NC(=O)[C@H](CCCCN)NC(=O)[C@H](CO)NC(=O)[C@H](Cc1ccccc1)NC(=O)[C@H](Cc1c[nH]c2ccccc12)NC(=O)[C@H](CCC(N)=O)NC(=O)[C@@H](NC(=O)[C@H](Cc1ccccc1)NC(=O)CCCCCNC(=O)CN1CCN(CC(=O)O)CCN(CC(=O)O)CCN(CC(=O)O)CC1)C(C)C)C(=O)N[C@@H](CCC(=O)O)C(=O)N1CCC[C@H]1C(=O)N[C@@H](CC(=O)O)C(=O)N[C@H](C(=O)N[C@@H](CO)C(=O)N[C@@H](CCC(N)=O)C(=O)N[C@H](C(=O)N[C@@H](CCC(N)=O)C(=O)N[C@@H](CC(=O)O)C(=O)N1CCC[C@H]1C(=O)N[C@@H](CC(N)=O)C(=O)N[C@@H](CC(=O)O)C(=O)N[C@@H](CCC(N)=O)C(=O)N[C@@H](Cc1ccc(O)cc1)C(=O)N[C@@H](CCC(=O)O)C(=O)N1CCC[C@H]1C(=O)N[C@@H](Cc1ccccc1)C(=O)O)C(C)C)C(C)C [copper-64 labelled]		dynamic PET	mouse, CT26 tumour, checkpoint inhibitor-treated, tumour	intravenous, 100 µCi/mouse, 1380 s		SUVmean	3.89 SUV
